Measured values of several laboratories.
A part holds a random share of what one study measured. “And” joins repeats or separate records; there may be more than shown.
Sequence of UniProt Q16816 (whole entry, looked up): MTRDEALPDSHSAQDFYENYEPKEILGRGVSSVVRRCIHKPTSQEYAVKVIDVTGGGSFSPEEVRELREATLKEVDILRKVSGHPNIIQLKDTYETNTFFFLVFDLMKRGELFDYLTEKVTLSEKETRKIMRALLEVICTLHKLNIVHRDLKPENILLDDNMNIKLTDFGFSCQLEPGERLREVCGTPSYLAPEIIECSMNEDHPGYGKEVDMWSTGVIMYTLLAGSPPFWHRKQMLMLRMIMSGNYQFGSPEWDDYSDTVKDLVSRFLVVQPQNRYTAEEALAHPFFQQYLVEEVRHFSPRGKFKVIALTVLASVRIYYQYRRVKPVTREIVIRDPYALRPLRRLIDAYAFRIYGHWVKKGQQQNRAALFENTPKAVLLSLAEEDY
Sequence of UniProt P42685 (whole entry, looked up): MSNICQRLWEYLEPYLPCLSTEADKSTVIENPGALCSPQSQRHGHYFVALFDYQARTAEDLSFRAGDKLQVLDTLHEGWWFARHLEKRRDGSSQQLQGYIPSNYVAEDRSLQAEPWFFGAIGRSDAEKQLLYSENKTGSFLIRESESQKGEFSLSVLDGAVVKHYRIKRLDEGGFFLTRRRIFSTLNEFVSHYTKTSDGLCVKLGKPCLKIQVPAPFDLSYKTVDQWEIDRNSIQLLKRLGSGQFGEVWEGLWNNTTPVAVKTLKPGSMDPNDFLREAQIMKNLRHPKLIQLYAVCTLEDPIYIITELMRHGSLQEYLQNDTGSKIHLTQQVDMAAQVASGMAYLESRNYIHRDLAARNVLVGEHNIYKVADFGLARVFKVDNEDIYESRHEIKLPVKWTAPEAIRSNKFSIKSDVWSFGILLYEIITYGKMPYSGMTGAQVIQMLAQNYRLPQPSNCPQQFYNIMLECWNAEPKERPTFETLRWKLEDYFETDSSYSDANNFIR
Sequence of UniProt Q8TD19 (whole entry, looked up): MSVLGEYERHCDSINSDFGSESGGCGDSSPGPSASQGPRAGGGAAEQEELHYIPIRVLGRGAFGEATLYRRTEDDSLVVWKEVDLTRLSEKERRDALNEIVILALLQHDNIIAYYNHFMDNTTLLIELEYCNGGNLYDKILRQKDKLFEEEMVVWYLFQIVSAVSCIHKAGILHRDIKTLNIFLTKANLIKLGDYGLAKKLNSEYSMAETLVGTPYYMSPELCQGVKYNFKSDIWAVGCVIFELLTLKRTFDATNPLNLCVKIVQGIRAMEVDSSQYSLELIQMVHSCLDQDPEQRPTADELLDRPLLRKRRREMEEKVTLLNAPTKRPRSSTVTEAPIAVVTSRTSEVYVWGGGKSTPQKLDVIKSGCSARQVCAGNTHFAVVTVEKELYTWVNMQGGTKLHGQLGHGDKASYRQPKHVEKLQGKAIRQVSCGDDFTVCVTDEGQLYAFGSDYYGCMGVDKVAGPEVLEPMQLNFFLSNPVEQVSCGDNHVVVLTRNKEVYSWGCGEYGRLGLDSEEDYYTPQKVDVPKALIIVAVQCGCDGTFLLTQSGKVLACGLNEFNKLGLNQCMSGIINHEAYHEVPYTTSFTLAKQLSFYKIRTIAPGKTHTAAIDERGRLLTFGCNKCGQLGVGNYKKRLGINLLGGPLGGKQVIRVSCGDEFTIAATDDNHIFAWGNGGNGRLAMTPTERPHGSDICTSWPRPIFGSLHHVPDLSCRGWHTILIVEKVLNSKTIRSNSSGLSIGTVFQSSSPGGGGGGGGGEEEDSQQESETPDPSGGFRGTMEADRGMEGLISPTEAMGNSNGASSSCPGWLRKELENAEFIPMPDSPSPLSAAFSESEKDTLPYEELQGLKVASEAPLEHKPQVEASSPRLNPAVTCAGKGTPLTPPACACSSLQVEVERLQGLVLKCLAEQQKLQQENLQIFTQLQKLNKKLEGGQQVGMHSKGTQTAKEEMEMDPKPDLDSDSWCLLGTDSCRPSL

Series 1
Compound: C[C@@H]1CN(c2ccc(-c3cc(C(=O)NCCOCCOCCOCCOCCOCCOCCNC(=O)/C=C/c4[nH]cc(C(=O)N[C@@H](CC(N)=O)c5ccc(F)c(Cl)c5)c4-c4ccc(Cl)cc4F)ccc3F)cc2NC(=O)c2ccc(F)cc2C(F)(F)F)C[C@H](C)N1C
Effect on: thermal unfolding
Technique: differential scanning fluorimetry
Concentration: 5.5 µM
Reading: higher = more unfolded
WDR5: WD repeat-containing protein 5 (WDR5, Homo sapiens, UniProt P61964)
DCAF1: DDB1- and CUL4-associated factor 1 (DCAF1, Homo sapiens, UniProt Q9Y4B6)
Sequence of UniProt Q9Y4B6 (whole entry, looked up): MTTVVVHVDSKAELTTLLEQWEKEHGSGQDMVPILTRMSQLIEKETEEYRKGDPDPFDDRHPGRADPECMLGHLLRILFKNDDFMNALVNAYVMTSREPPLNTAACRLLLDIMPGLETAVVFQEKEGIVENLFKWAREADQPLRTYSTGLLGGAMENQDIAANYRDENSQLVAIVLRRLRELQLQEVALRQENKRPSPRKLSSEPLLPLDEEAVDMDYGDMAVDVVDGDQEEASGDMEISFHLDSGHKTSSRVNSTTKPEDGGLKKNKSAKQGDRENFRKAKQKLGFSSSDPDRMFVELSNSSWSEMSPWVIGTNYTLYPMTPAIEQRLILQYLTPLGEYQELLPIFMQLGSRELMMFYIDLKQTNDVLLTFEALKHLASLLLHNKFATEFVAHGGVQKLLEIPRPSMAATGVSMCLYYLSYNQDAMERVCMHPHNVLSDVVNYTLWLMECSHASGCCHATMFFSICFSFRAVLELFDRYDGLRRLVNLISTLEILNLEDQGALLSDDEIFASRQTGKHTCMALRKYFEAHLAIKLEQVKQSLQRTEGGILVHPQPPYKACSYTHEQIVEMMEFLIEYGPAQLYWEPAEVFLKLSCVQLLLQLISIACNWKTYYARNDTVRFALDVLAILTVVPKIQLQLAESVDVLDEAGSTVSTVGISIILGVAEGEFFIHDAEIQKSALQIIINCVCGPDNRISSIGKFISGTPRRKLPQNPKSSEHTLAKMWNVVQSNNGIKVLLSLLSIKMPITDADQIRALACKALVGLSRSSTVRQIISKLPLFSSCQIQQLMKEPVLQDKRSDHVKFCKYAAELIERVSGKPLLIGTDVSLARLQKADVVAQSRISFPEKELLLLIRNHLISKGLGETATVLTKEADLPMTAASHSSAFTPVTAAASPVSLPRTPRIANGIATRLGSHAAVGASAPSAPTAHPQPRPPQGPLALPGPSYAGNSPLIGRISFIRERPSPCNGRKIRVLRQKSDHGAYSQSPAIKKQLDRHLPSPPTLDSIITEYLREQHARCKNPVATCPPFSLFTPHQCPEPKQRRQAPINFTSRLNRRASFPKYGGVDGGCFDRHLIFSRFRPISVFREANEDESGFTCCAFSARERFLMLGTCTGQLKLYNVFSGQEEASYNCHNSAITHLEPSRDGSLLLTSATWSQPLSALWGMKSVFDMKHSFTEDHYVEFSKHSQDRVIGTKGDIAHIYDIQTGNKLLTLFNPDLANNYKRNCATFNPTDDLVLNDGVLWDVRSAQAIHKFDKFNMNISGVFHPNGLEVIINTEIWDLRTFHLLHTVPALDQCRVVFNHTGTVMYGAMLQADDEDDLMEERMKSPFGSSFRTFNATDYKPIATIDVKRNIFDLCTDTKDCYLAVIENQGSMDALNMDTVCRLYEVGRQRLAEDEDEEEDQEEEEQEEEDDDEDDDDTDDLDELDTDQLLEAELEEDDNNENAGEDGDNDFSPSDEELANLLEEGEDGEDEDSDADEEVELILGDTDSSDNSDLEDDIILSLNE
It gave 13700 a.u. for “SYPRO Orange fluorescence” (WDR5; 31.6 °C).
It gave 13400 a.u. for “SYPRO Orange fluorescence” (WDR5; 27.4 °C).
For DCAF1; 29.8 °C: “SYPRO Orange fluorescence” read 8300 a.u.
WDR5; 49.4 °C — “SYPRO Orange fluorescence”: 16100 a.u.
It gave 24900 a.u. for “SYPRO Orange fluorescence” (DCAF1; 54.21 °C).
It gave 54600 a.u. for “SYPRO Orange fluorescence” (WDR5; 76.41 °C).
For DCAF1; 32.2 °C: “SYPRO Orange fluorescence” read 9040 a.u.
For DCAF1; 78.01 °C: “SYPRO Orange fluorescence” read 41300 a.u.
It gave 13900 a.u. for “SYPRO Orange fluorescence” (WDR5; 36.6 °C).
DCAF1; 41.4 °C — “SYPRO Orange fluorescence”: 12400 a.u.
For DCAF1; 67.61 °C: “SYPRO Orange fluorescence” read 50700 a.u.

Series 2
Compound: COc1cc(-c2nc3ccc(C(=O)NCCCN4CCN(c5cccc(C)c5C)CC4)cc3n2C2CCC2)cc(OC)c1OC
For MAP3K7 (Homo sapiens, UniProt O43318); binding, competition with immobilised ligand; 1 µM: remaining binding read 95%.
It gave 100% for remaining binding (LATS1 (Homo sapiens, UniProt O95835); KINOMEscan; 1000 nM).
MET (Homo sapiens, UniProt P08581); binding, competition with immobilised ligand; 1 µM — remaining binding: 48%.
For NEK9 (Homo sapiens, UniProt Q8TD19); binding, competition with immobilised ligand; 1 µM: remaining binding read 100%.
It gave 100% for remaining binding (MARK3 (Homo sapiens, UniProt P27448); binding, competition with immobilised ligand; 1 µM).
It gave 83% for remaining binding (FLT3 (Homo sapiens, UniProt P36888, N841I); binding, competition with immobilised ligand; 1 µM).
EGFR (Homo sapiens, UniProt P00533, del752-759); binding, competition with immobilised ligand; 1 µM — remaining binding: 80%.
The remaining binding was 74% (SIK3 (Homo sapiens, UniProt Q9Y2K2); binding, competition with immobilised ligand; 1 µM).
For PHKG1 (Homo sapiens, UniProt Q16816); binding, competition with immobilised ligand; 1 µM: remaining binding read 100%.
For PLK1 (Homo sapiens, UniProt P53350); binding, competition with immobilised ligand; 1 µM: remaining binding read 97%.
The remaining binding was 75% (HIPK3 (Homo sapiens, UniProt Q9H422); binding, competition with immobilised ligand; 1 µM).
For FRK (Homo sapiens, UniProt P42685); binding, competition with immobilised ligand; 1 µM: remaining binding read 67%.
The remaining binding was 71% (SRC (Homo sapiens, UniProt P12931); binding, competition with immobilised ligand; 1 µM).

Series 3
SMILES: CCN1/C(=C/C=C2\CCCC(/C=C/C3=[N+](CC)c4ccccc4C3(C)C)=C2NCCCCCCCCN2CCC(Nc3nc4ccccc4n3Cc3ccc(F)cc3)CC2)C(C)(C)c2ccccc21
Cell line: U-87 MG
Concentration: concentration not given
Relative to: DMSO
measured: TREX1 mRNA — “log2 fold change”: -1.11.
For measured: NMT2 mRNA: “log2 fold change” read -0.845.
measured: ADAM17 mRNA — “log2 fold change”: 0.976.
It gave -5.04 for “log2 fold change” (measured: KRTAP2-3).
It gave 1.59 for “log2 fold change” (measured: ARID5A mRNA).
The “log2 fold change” was -1.49 (measured: FOXM1 mRNA).
The “log2 fold change” was -2.24 (measured: CDCA8 mRNA).
It gave 0.885 for “log2 fold change” (measured: USP6NL mRNA).
The “log2 fold change” was -0.904 (measured: KIAA0895L mRNA).
For measured: STC1 mRNA: “log2 fold change” read 1.92.
It gave -2.69 for “log2 fold change” (measured: CRISPLD2 mRNA).

Series 4
SMILES: NC/C(=C\F)COc1cccc(Cn2c(=S)[nH]c(=O)c3[nH]ccc32)c1
MPO: Myeloperoxidase (MPO, Homo sapiens, UniProt P05164)
Sequence of UniProt P05164 (whole entry, looked up): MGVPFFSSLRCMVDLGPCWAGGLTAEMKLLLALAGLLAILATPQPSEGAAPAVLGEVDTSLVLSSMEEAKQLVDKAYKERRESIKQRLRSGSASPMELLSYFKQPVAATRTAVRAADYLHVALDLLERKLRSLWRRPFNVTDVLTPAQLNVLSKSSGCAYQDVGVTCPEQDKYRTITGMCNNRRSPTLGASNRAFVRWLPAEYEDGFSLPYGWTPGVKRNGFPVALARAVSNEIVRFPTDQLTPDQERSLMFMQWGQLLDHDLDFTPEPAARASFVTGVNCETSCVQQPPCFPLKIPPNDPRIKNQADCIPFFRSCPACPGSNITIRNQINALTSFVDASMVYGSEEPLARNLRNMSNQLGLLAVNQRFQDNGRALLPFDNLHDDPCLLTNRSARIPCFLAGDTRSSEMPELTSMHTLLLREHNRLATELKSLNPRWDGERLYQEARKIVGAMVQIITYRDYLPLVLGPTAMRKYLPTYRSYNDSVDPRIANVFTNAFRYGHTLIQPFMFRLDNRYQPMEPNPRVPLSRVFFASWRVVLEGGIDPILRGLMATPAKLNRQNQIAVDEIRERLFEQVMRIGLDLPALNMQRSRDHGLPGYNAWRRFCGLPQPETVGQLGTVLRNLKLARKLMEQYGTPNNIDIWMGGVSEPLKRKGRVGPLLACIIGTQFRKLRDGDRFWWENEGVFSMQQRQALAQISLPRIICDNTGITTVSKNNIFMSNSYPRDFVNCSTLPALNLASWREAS
AOC3: Amine oxidase [copper-containing] 3 (AOC3, Homo sapiens, UniProt Q16853)
Sequence of UniProt Q16853 (whole entry, looked up): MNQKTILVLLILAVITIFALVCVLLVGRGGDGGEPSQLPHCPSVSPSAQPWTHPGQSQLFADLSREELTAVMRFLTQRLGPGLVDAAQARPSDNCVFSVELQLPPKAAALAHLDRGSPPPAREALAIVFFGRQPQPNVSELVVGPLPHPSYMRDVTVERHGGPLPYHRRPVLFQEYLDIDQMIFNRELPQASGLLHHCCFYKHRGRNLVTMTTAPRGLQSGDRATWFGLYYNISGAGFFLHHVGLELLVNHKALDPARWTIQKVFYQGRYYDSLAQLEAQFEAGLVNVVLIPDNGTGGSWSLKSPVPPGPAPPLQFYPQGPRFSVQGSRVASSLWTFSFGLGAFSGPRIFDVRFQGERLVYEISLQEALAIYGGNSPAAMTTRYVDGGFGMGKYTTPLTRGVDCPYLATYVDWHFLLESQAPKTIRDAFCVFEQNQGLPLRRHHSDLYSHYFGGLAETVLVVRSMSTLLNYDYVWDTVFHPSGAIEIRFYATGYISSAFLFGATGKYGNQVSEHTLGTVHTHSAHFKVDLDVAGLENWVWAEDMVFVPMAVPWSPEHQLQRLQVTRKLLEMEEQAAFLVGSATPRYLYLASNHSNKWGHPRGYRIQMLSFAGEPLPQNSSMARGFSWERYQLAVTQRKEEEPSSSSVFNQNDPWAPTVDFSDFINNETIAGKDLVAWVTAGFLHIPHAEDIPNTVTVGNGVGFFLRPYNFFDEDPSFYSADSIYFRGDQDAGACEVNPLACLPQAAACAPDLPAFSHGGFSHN
For MPO; enzyme activity, inhibitor, fluorescence; 6.9 nM: inhibition read 26% and 44.2% and 24.6%.
For MPO; enzyme activity, inhibitor, fluorescence; 1.667 µM: inhibition read 99.6% and 98.9% and 98.6%.
For MPO; enzyme activity, inhibitor, fluorescence; 0.3704 µM: inhibition read 98.2% and 98.6% and 96.7%.
For MPO; enzyme activity, inhibitor, fluorescence; 61.7 nM: inhibition read 83.2% and 83.3% and 95.2%.
The inhibition was 100% and 99.5% and 99.4% and 99.9% and 97.3% (AOC3; enzyme activity, inhibitor, fluorescence; 3.333 µM).
AOC3; enzyme activity, inhibitor, fluorescence; 41.2 nM — inhibition: 84.2% and 92.4% and 84.7% and 68.8% and 88.1% and 91.7%.
It gave 99.2% and 95.3% and 99.1% and 98.5% and 97.8% for inhibition (AOC3; enzyme activity, inhibitor, fluorescence; 0.3704 µM).
The inhibition was 52.7% and 71.6% and 47% (MPO; Amplex Red; 0.0206 µM).

For quick reference, copied from above (series 3):
measured: TREX1 mRNA — “log2 fold change”: -1.11.
It gave 0.885 for “log2 fold change” (measured: USP6NL mRNA).
For measured: STC1 mRNA: “log2 fold change” read 1.92.
The “log2 fold change” was -2.24 (measured: CDCA8 mRNA).
The “log2 fold change” was -0.904 (measured: KIAA0895L mRNA).
